Assay results from different studies.
Numbers after ± are the reported error.
pufM QA site: Reaction center protein M chain, QA site (pufM, Cereibacter sphaeroides, UniProt P0C0Y9)
ISOC2: Isochorismatase domain-containing protein 2 (ISOC2, Homo sapiens, UniProt Q96AB3)
Sequence of UniProt Q96AB3 (whole entry, looked up): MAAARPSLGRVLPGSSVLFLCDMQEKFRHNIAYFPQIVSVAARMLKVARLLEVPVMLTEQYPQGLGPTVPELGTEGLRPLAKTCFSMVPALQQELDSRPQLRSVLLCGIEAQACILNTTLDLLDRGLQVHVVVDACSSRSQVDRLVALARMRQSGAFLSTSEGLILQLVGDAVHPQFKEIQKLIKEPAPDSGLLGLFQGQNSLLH
Sequence of UniProt Q16774 (whole entry, unmodified, looked up): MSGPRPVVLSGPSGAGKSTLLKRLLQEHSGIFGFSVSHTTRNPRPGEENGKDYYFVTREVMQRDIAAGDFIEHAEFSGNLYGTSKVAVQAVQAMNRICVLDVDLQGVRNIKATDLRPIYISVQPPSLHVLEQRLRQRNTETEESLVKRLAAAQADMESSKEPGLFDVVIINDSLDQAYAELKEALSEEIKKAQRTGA
Sequence of UniProt P40337 (whole entry, looked up): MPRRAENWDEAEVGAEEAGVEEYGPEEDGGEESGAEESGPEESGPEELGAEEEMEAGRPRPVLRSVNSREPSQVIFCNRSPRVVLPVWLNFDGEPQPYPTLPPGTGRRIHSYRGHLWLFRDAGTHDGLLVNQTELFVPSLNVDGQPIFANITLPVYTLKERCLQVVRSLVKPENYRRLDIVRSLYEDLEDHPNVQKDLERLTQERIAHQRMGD
Sequence of UniProt A8K8P3 (whole entry, looked up): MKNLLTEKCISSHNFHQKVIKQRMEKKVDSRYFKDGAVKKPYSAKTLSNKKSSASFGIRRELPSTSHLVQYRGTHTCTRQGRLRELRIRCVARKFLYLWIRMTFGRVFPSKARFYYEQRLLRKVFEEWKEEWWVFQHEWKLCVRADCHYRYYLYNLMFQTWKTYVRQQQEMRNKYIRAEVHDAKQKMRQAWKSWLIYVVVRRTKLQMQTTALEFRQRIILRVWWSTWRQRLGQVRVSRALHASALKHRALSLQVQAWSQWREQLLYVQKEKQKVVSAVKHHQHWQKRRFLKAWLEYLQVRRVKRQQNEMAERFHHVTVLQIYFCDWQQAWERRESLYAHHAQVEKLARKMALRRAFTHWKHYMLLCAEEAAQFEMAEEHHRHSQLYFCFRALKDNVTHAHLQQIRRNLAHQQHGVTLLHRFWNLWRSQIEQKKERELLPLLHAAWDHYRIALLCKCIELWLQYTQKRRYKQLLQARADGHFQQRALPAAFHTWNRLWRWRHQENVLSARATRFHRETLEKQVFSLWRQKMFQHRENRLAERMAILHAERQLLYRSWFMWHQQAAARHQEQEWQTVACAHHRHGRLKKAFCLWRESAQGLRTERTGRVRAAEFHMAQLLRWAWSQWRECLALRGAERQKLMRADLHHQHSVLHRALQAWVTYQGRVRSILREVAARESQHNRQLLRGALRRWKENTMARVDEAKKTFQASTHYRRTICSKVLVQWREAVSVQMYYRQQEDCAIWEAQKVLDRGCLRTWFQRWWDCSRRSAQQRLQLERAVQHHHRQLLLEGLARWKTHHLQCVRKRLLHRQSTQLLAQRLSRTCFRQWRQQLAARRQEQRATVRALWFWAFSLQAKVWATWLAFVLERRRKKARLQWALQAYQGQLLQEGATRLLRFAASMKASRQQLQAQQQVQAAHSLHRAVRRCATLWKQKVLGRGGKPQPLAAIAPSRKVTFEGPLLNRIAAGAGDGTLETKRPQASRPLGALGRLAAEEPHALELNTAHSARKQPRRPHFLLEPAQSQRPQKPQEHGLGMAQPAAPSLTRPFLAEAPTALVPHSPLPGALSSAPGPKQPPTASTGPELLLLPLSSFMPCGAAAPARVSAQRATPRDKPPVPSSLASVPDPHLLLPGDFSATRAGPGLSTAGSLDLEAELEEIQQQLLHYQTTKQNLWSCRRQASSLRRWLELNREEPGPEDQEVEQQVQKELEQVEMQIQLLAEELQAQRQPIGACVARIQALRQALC
Sequence of UniProt Q8N1Q1 (whole entry, looked up): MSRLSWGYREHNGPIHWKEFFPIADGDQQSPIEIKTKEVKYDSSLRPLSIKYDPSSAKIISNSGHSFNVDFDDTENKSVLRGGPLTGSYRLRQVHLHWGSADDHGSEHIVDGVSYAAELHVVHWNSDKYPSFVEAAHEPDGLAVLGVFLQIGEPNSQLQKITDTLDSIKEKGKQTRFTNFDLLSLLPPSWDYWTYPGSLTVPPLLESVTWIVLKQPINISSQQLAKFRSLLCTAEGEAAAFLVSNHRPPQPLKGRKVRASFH
Sequence of UniProt P07451 (whole entry, looked up): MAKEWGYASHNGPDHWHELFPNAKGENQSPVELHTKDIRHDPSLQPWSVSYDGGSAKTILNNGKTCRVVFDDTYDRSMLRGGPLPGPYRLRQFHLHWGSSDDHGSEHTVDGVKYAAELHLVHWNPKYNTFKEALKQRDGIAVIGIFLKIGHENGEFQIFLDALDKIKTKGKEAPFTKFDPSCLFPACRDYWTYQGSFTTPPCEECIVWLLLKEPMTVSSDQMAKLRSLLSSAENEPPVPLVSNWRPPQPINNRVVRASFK
Sequence of UniProt P00370 (whole entry, looked up): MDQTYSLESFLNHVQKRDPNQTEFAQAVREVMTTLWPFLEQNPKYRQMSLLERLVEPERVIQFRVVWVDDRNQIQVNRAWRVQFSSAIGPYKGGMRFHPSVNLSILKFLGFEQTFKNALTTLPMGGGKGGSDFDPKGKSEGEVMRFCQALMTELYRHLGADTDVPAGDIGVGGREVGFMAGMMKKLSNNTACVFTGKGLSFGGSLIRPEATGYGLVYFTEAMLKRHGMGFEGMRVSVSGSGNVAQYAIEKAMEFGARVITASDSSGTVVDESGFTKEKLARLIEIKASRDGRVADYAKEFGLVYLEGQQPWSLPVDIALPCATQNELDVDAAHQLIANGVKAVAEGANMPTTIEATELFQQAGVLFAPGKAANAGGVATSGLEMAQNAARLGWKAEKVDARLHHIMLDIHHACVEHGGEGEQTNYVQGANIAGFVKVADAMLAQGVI
Sequence of UniProt O60563 (whole entry, looked up): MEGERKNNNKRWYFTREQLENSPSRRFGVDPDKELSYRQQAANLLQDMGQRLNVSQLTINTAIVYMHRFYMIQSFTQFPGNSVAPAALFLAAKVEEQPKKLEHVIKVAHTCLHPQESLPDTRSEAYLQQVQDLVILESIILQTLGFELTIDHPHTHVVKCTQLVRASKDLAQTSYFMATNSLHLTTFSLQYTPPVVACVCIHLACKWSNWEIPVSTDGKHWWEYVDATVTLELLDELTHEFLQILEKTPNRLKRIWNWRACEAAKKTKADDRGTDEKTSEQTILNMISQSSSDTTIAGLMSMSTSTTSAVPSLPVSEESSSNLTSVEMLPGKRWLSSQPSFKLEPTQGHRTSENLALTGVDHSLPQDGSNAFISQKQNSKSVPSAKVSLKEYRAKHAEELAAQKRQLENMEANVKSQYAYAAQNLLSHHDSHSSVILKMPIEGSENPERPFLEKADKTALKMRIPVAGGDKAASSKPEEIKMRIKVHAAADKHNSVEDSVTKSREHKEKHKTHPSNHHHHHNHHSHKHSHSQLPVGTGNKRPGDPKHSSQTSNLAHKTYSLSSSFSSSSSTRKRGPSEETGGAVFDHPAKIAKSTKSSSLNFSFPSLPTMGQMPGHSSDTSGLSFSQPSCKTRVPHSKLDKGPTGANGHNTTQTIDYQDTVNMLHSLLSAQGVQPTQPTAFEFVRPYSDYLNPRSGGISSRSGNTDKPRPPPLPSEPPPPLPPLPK
Sequence of UniProt P70536 (whole entry, looked up): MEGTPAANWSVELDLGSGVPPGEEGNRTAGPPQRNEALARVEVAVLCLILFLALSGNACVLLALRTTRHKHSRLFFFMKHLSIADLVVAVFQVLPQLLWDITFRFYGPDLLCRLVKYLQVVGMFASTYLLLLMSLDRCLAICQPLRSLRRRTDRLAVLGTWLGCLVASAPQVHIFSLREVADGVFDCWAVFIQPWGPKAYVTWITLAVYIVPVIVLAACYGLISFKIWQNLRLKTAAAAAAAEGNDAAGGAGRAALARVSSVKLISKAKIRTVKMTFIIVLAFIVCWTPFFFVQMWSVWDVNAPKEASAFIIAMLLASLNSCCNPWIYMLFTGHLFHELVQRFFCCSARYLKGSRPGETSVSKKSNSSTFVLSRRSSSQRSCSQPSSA
Sequence of UniProt Q96FX7 (whole entry, looked up): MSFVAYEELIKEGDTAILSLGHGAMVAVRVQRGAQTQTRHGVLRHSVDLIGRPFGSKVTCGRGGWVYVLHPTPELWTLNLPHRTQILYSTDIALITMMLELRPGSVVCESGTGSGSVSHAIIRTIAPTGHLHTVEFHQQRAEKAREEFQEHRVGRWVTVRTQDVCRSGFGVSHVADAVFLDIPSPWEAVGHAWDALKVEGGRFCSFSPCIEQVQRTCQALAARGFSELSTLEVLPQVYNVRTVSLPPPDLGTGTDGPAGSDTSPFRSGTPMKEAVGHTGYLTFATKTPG
Sequence of UniProt P0AGE0 (whole entry, looked up): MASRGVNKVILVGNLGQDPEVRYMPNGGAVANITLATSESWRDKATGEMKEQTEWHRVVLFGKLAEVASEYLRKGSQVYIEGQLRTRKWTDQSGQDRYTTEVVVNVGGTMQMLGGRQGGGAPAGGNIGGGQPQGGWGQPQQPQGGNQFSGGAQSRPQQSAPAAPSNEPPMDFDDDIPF
Sequence of UniProt P32099 (whole entry, looked up): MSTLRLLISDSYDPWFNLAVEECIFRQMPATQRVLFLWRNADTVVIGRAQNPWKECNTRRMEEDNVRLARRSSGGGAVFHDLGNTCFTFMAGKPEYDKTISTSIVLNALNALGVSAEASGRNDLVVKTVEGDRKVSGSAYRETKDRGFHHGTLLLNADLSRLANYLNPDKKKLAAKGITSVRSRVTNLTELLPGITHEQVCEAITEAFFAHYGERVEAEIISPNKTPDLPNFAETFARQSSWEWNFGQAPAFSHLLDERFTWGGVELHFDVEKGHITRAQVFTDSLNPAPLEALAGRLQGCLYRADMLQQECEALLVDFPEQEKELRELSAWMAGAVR

CC1=C(C)C(=O)c2ccccc2C1=O  Kd (pufM QA site; QA site binding; LDAO detergent solution; pH 7.8, 298 K, together with: 1 µM reaction centres): 0.03 µM
CC(=O)N[C@H](C(=O)N1C[C@H](O)C[C@H]1C(=O)NCc1ccc(-c2scnc2C)cc1)C(C)(C)SCCCCCCNC(=O)C[C@@H]1N=C(c2ccc(Cl)cc2)c2c(sc(C)c2C)-n2c(C)nnc21  Kd (von Hippel-Lindau disease tumor suppressor, with elongin B/C (VHL, Homo sapiens, UniProt P40337); binary binding, ITC; 25 °C, VCB titrated into compound): 0.335 ± 0.03 µM
Nc1nc2c(ncn2[C@@H]2O[C@@H]3CO[P@](=O)(O)O[C@H]4[C@@H](O)[C@H](n5cnc6c(=O)[nH]c(N)nc65)O[C@@H]4CO[P@](=O)(O)O[C@H]3[C@H]2O)c(=O)[nH]1  Kd (uncharacterized protein (Treponema denticola, UniProt Q73MV1)): 284 ± 97 µM
Cc1[nH]c2ccccc2c1CCNCc1ccc(/C=C/C(=O)NO)cc1  Kd (ISOC2; inhibitor, competition pulldown; SW620 and MV4-11 lysate; 1 h): > 30.2 µM
Nc1nc2c(ncn2[C@@H]2O[C@H](COP(=O)(O)OP(=O)(O)O)[C@@H](OP(=O)(O)OP(=O)(O)O)[C@H]2O)c(=O)[nH]1  Kd (NADP-specific glutamate dehydrogenase (gdhA, Escherichia coli, UniProt P00370); binding, ITC sequential two-site fit; first site): 2.8 ± 0.4 µM
CCCN1CCN(c2ccc(-c3cncc(Cl)c3N3CCC4(CCNC4=O)CC3)cc2)CC1  Kd (Cyclin-T1 (CCNT1, Homo sapiens, UniProt O60563); SILAC displacement; LS174T-L5 cell lysate): 5.33 µM
CC1=CC(=O)C=C(C)C1=O  Kd (pufM QA site; QA site binding; LDAO detergent solution; pH 7.8, 298 K, together with: 1 µM reaction centres): 88 µM
Nc1ncnc2c1ncn2[C@@H]1O[C@H](COP(=O)(O)OP(=O)(O)O)[C@@H](O)[C@H]1O  Kd (GUK1, part: GMP-bound (Homo sapiens, UniProt Q16774); binding, ITC; together with: ATPγS): 14 ± 3 µM
O=C(/C=C/c1cccc(S(=O)(=O)Nc2ccccc2)c1)NO  Kd (ISOC2; inhibitor, competition pulldown; SW620 and MV4-11 lysate; 1 h): > 30.2 µM
NC(=O)CCCCC1CCSS1 (racemic)  Kd (lplA (Escherichia coli, UniProt P32099); binding, isothermal titration calorimetry): 27.7 µM
NS(=O)(=O)c1ccccc1  Kd (CA3 (Homo sapiens, UniProt P07451); thermal shift; pH 7.0, 25 °C): 200 µM
CC[C@@]1(O)C(=O)OCc2c1cc1n(c2=O)Cc2cc3ccccc3nc2-1  Kd (MYC G-quadruplex DNA; binding, fluorescence; pH 7.0, 20 °C, together with: K+ 100 mM): > 2 µM
C=CC(=O)N1CCN(c2nc(OC[C@@H]3CCCN3C)nc3c(F)c(-c4nc(N)cc(C)c4C(F)(F)F)c(Cl)cc23)[C@@H](C)C1  Kd (GTPase KRas, GDP-bound (KRAS, Homo sapiens, UniProt P01116); SPR): 0.745 µM
C=C1CC[C@H](O)C/C1=C/C=C1\CCC[C@]2(C)[C@@H]([C@H](C)CCCC(C)C)CC[C@@H]12  Kd (CYP125 ancestral reconstruction; UV-Vis difference spectra; Michaelis-Menten fit): 1.4 ± 0.3 µM
O=C(OC[C@H]1O[C@@H](OC(=O)c2cc(O)c(O)c(O)c2)[C@H](OC(=O)c2cc(O)c(O)c(O)c2)[C@@H](OC(=O)c2cc(O)c(O)c(O)c2)[C@@H]1OC(=O)c1cc(O)c(O)c(O)c1)c1cc(O)c(O)c(O)c1  Kd (TRMT61A (Homo sapiens, UniProt Q96FX7); binding): 0.614 µM
O=C(CCCCCN1C(=O)c2cccc3cccc(c23)C1=O)NO  Kd (ISOC2; inhibitor, competition pulldown; SW620 and MV4-11 lysate; 1 h): 0.0405 µM
COc1cc2c3c(n(CCCn4ccnc4)c(=O)c2cc1OC)-c1nc2c(cc1C3=O)OCO2  Kd (MYC G-quadruplex DNA; binding, fluorescence; pH 7.0, 20 °C, together with: K+ 100 mM): 0.147 µM
CC(C)CCC[C@@H](C)[C@H]1CC[C@H]2[C@@H]3CCC4=CC(=O)CC[C@]4(C)[C@H]3CC[C@]12C  Kd (CYP125 ancestral reconstruction; UV-Vis difference spectra; Michaelis-Menten fit): 0.6 ± 0.1 µM
CC(=O)Nc1ccc(C(=O)Nc2ccccc2N)cc1  Kd (ISOC2; inhibitor, competition pulldown; SW620 and MV4-11 lysate; 1 h): > 30.2 µM
CC1=CC(=O)C(C)=C(C)C1=O  Kd (pufM QA site; QA site binding; LDAO detergent solution; pH 7.8, 298 K, together with: 1 µM reaction centres): 16 µM
Nc1ncnc2c1ncn2[C@@H]1O[C@H](COP(=O)(O)OP(=O)(O)OP(=O)(O)O)[C@@H](O)[C@H]1O  Kd (CKMT1A (Homo sapiens, UniProt P12532, D359N); microscale thermophoresis; pH 8.5, D321N mutant, no substrate): 15 ± 6 µM
O=C(CCCCCCNC(=O)c1cnc(N(c2ccccc2)c2ccccc2Cl)nc1)NO  Kd (ISOC2; inhibitor, competition pulldown; SW620 and MV4-11 lysate; 1 h): 0.391 µM
CC[C@H](C)[C@@H]1NC(=O)[C@H](Cc2ccc(O)cc2)NC(=O)[C@@H](N)CSSC[C@@H](C(=O)N2CCC[C@H]2C(=O)N[C@@H](CC(C)C)C(=O)NCC(N)=O)NC(=O)[C@H](CC(N)=O)NC(=O)[C@H](CCC(N)=O)NC1=O  Kd (Oxytocin receptor (Rattus norvegicus, UniProt P70536); binding, kinetic k-1/k1; rat isolated mammary cells; 20 °C): 0.0026 µM
CCCCCCCC/C=C\CCCCCCCC(=O)OC[C@H](COP(=O)([O-])OCC[N+](C)(C)C)OC(=O)CCCCCCC/C=C\CCCCCCCC  Kd (Single-stranded DNA-binding protein (ssb, Escherichia coli, UniProt P0AGE0); binding, tryptophan fluorescence quenching; Escherichia coli, 100% in DOPC liposomes; 37 °C): > 30 µM
Nc1nc(-c2ccc(Cl)c(S(N)(=O)=O)c2)cs1  Kd (CA13 (Homo sapiens, UniProt Q8N1Q1); thermal shift; pH 7.0, 25 °C): 0.1 µM
COc1cc2c3c(n(CCCN4CCOCC4)c(=O)c2cc1OC)-c1cc2c(cc1C3=O)OCO2  Kd (MYC G-quadruplex DNA; binding, fluorescence; pH 7.0, 20 °C, together with: K+ 100 mM): 0.2 µM
CCCC(CCC)C(=O)O  Kd (ISOC2; inhibitor, competition pulldown; SW620 and MV4-11 lysate; 1 h): > 3020 µM
CC1=CC(=O)c2ccccc2C1=O  Kd (pufM QA site; QA site binding; LDAO detergent solution; pH 7.8, 298 K, together with: 1 µM reaction centres): 1.4 µM
CCCCN(Cc1ccc(C(=O)NO)cc1)C(=O)Nc1ccccc1  Kd (ISOC2; inhibitor, competition pulldown; SW620 and MV4-11 lysate; 1 h): > 30.2 µM
COc1ccc(CCCn2ncc3c2nc(N)n2nc(-c4ccco4)nc32)cc1  Kd (adenosine A2A receptor, sheep; competition binding; striatum membranes; one-site model, together with: 24 nM [3H]CGS21680): 0.18 ± 0.05 µM
O=C(/C=C/c1ccc(CN(CCO)CCc2c[nH]c3ccccc23)cc1)NO  Kd (ISOC2; inhibitor, competition pulldown; SW620 and MV4-11 lysate; 1 h): > 30.2 µM
COc1cc2c3c(n(CCCN4CCC[C@H]4C(N)=O)c(=O)c2cc1OC)-c1nc2c(cc1C3=O)OCO2  Kd (MYC G-quadruplex DNA; binding, fluorescence; pH 7.0, 20 °C, together with: K+ 100 mM): 0.059 µM
Nc1nc2c(ncn2[C@@H]2O[C@H](COP(=O)(O)O)[C@@H](O)[C@H]2O)c(=O)[nH]1  Kd (GUK1 (Homo sapiens, UniProt Q16774, R41A); binding, ITC; 25 °C, together with: GMP): > 500 µM
CC[C@H](/C=C/[C@@H](C)[C@H]1CC[C@H]2[C@@H]3CC=C4C[C@@H](O)CC[C@]4(C)[C@H]3CC[C@]12C)C(C)C  Kd (CYP125 ancestral reconstruction; UV-Vis difference spectra; Michaelis-Menten fit): 1.5 ± 0.7 µM
CC1=CC(=O)CC(C)(C)[C@]1(O)/C=C/C(C)=C\C(=O)O  Kd (RIPK1, LRR domain (Fragaria x ananassa, UniProt A0A0C4Y8D1); binding, isothermal titration calorimetry; pH 7.4, 25 °C): 15.1 ± 2.4 µM
CC(C)[C@H](C)CC[C@@H](C)[C@H]1CC[C@H]2[C@@H]3CC=C4C[C@@H](O)CC[C@]4(C)[C@H]3CC[C@]12C  Kd (CYP125 ancestral reconstruction; UV-Vis difference spectra; Michaelis-Menten fit): 3.1 ± 1.5 µM
Nc1ncnc2c1ncn2[C@@H]1O[C@H](COP(=O)(O)OP(=O)(O)OC[C@H]2OC(O)[C@H](O)[C@@H]2O)[C@@H](O)[C@H]1O (stereo partly drawn)  Kd (Protein SFI1 homolog (SFI1, Homo sapiens, UniProt A8K8P3)): 1.91 µM
COc1cc2c3c(n(CCCn4ccnc4)c(=O)c2cc1OC)-c1cc2c(cc1C3=O)OCO2  Kd (MYC G-quadruplex DNA; binding, fluorescence; pH 7.0, 20 °C, together with: K+ 100 mM): 0.069 µM
CC[C@H](CC[C@@H](C)[C@H]1CC[C@H]2[C@@H]3CCC4=CC(=O)CC[C@]4(C)[C@H]3CC[C@]12C)C(C)C  Kd (CYP125 ancestral reconstruction; UV-Vis difference spectra; Morrison fit, fitted enzyme): 0.1 ± 0.09 µM
